Experimental data collected from several papers.
Compare with care: the assays were run in different laboratories. Several values in a cell are separate wells, animals, samples, runs or records. ± marks the error that the study gave.

O=c1nc(NO)ccn1[C@@H]1O[C@H](CO)[C@@H](O)[C@H]1O  long-term stability (rat amniotic fluid dialysate; 1000 ng/mL, more than 4 weeks, -20 °C, high concentration, added: molnupiravir 250 ng/mL): 101.5 ± 0.39%
C[C@]1(O)C[C@@](N)(c2ccc(-c3nc4n(c3-c3ccccc3)COc3ccncc3-4)cc2)C1  patients with Stomatitis TEAE (human, advanced or metastatic solid tumours; once daily, dose escalation total, any grade): 0%
CC(C)(c1ccccc1)c1cc(-n2nc3ccccc3n2)c(O)c(C(C)(C)c2ccccc2)c1  daily dermal exposure dose (human aged 16-21 years; concentration not given, sunscreen, 95th percentile): 1.34 ng/kg/day
Clc1ccc(-c2ccccc2)cc1  sodium (female Sprague-Dawley rats, serum; inhalation, 23 µg/rat, 4 h after exposure): 127 ± 12 mmol/L
CC(C)Nc1ccnc(Nc2cccc(-c3cccnc3)c2)n1  blood chemistry (item: Creatinine; mouse, blood; intraperitoneal, 5 mg/kg): 0.24 mg/dL
COc1ccc(C[C@@H]2NC(=O)[C@H]([C@@H](C)O)NC(=O)[C@@H]3[C@@H]4CCN3C(=O)[C@@H]3Cc5cn(c6ccc(F)cc56)CCCCCCN(Cc5ccc(cc5)CCNC(=O)[C@]5(C)CCCN5C2=O)C(=O)CCC(=O)N[C@@H](C)C(=O)N[C@H](CNC(=O)CCCCC[N+](C)(C)C)C(=O)N[C@@H](Cc2cccc(c2)CNC(=O)CO4)C(=O)N3)cc1  participants with adverse event (item: Pharyngitis; humans; concentration not given, Study-001): 0%
CCc1ccc(CC/C=C/c2ccc3c(c2)C(=O)CC3)cc1  Hemoglobin (Sprague-Dawley rat, male; oral, 450 mg/kg/day, 14 days): 140 g/L
CC1CCN(CCCNC(=O)c2cc(Sc3ccc(F)cc3)nc3ccccc23)CC1  maximum response (Vero-E6; CellTiter-Glo ATP; 72 h, retest 8-point duplicates; reference: DMSO 0%, hyamine -100%, more negative, more toxic): -8.01%
O=C(c1ccc(F)c(F)c1Nc1ccc(I)cc1F)N1CC(O)([C@@H]2CCCCN2)C1  related AE dose modification (patients aged sample A to sample B years; oral, dose not given): 29%
CC(C)C[C@H](NC(=O)[C@H](CCCCN)NC(=O)OCC1c2ccccc2-c2ccccc21)C(=O)N[C@H](C(=O)N[C@@H](Cc1ccccc1)C(=O)N[C@@H](Cc1ccccc1)C(=O)N[C@@H](CCCCN)C(=O)NCC(=O)N[C@@H](Cc1ccccc1)C(=O)N[C@@H](C)C(=O)N[C@@H](Cc1c[nH]c2ccccc12)C(=O)N[C@@H](CC(N)=O)C(=O)N[C@H](C(=O)N[C@H]1CSSC[C@@H](C(=O)N[C@@H](Cc2c[nH]cn2)C(=O)N[C@@H](CCCNC(=N)N)C(=O)N[C@@H](CCCNC(=N)N)C(=O)N[C@@H](C)C(=O)N[C@@H](CC(N)=O)C(N)=O)NC(=O)[C@H](C(C)C)NC(=O)[C@H](CCCNC(=N)N)NC(=O)[C@H](C(C)C)NC(=O)CNC(=O)[C@H](CC(N)=O)NC(=O)[C@H](CCCNC(=N)N)NC(=O)[C@H](Cc2ccc(O)cc2)NC(=O)[C@H](C(C)C)NC1=O)C(C)C)C(C)C  peptide remaining (mouse mammary gland homogenate 50 mg/mL; 8.00 h, 37 °C): 71.3% and 76.1% and 73.2%
O=S(=O)(Nc1ccccc1)c1ccc(NC(=S)Nc2ccccc2)cc1  haemoglobin (female mouse, blood; oral, 20 mg/kg daily, 14 days): 10.2 g/dL
COc1cc(C2C3=C(COC3=O)N(CCO)c3cc4c(cc32)CCC4)cc(OC)c1OC (centres unmarked)  body weight (female C57BL/6 mice; intraperitoneal, 400 mg/kg, 24 h, single dose, mean): 20 g
CCn1c2ccccc2c2cc(CN3CCN(Cc4cccc(Cl)c4)CC3)ccc21  maximum response (Vero-E6; CellTiter-Glo ATP; 72 h, second round 5-point; reference: DMSO 0%, hyamine -100%, more negative, more toxic): 0.058%
CO[C@H]1C[C@@H]2CC[C@@H](C)[C@@](O)(O2)C(=O)C(=O)N2CCCC[C@H]2C(=O)O[C@H]([C@H](C)C[C@@H]2CC[C@@H](OC(=O)NCCOCCOCCOCCOCCOCCOCCOCCOCCC(=O)N3CCc4cc(Cn5nc(-c6ccc7oc(N)nc7c6)c6c(N)ncnc65)ccc4C3)[C@H](OC)C2)C[C@@H](O)[C@H](C)/C=C(\C)[C@@H](O)[C@@H](OC)C(=O)[C@H](C)C[C@H](C)/C=C/C=C/C=C/1C  deaths due to TRAEs (phase 1 dose escalation; advanced solid tumour patients; intravenous, 12 mg weekly, any grade): 0%
[Se]  brain-to-plasma ratio (rat; single dose, sodium selenate): ~0.2
CCN1[C@@H](C(=O)NC23CCC(C(=O)O)(CC2)CC3)[C@H](c2cccc(Cl)c2F)[C@]2(C(=O)Nc3cc(Cl)ccc32)C12CCCCC2  Myalgia incidence (patients with advanced solid tumours; oral, 200 mg): 0%
COc1ccc2nc3cc(Cl)ccc3c(Nc3cc(CN4CCCC4)c(O)c(CN4CCCC4)c3)c2n1  neutrophil count (mouse, blood; intraperitoneal, 28 mg/kg): 1.54 10⁹/L
CC[C@H](C)[C@@H]([C@@H](CC(=O)N1CCC[C@H]1[C@H](OC)[C@@H](C)C(=O)N[C@@H](Cc1ccccc1)C(=O)O)OC)N(C)C(=O)[C@@H](NC(=O)[C@H](C(C)C)N(C)C)C(C)C  excreted in feces (item: compound-HPA; Sprague Dawley rat, feces; intravenous, dose not given, 120 h, dosed as NaPi2b ADC, recovery-corrected; reference: payload dose): 25.4%
COc1ncccc1-c1cnn2ccc(N3CCN(C(=O)OC(C)C)CC3)nc12  drug concentration (rat, CCI mechanical hyperalgesia model, plasma; oral, 10 mg/kg, 210 min): 1400 nM
C[C@]1(CO)Cc2ncn(-c3ccc(C#N)c(Cl)c3)c2C(=O)O1  Tmax at steady state (healthy Japanese adults, plasma; 3 mg once daily, multiple dose): 30 min
CN[C@@H](C)C(=O)N[C@H]1CN(S(=O)(=O)c2cccc(S(=O)(=O)N3CC[C@H]4CC[C@@H](C(=O)NC(c5ccccc5)c5ccccc5)N4C(=O)[C@@H](NC(=O)[C@H](C)NC)C3)c2)CC[C@H]2CC[C@@H](C(=O)NC(c3ccccc3)c3ccccc3)N2C1=O  treatment-related pruritus incidence (patients with advanced solid tumours; 30 mg, phase I monotherapy): 0%
CC(=O)c1c(C)c2cnc(Nc3ccc(C4CCN(CCS(C)(=O)=O)CC4)cn3)nc2n(C2CCCC2)c1=O  clearance (human, plasma; oral, 75 mg twice daily, day 1, single dose, added: letrozole): 1890 mL/min
CN1CC[C@@H](c2c(O)cc(O)c3c(=O)cc(-c4ccc(C(F)(F)F)cc4Cl)oc23)[C@@H]1CO  patients with adverse event (item: Epistaxis; AML; oral, 100 mg, intermittent dosing): 0%
CNC(=O)c1cc(Oc2ccc(NC(=O)Nc3cc(C(C)(C)C)nn3-c3ccc4ncccc4c3)c(F)c2)ccn1  related SAE (ejection fraction decreased, NCI CTC v3.0; human patients; oral, 150 mg twice daily, tablet, dose at onset): 3%
O=c1cc(-c2ccc(O)c(O)c2)oc2cc(O)cc(O)c12  faecal excretion (Sprague-Dawley rat, male, obese, faeces; oral, 100 mg/kg neohesperidin, 36-48 h): 18.3 ± 12.2 ng
O=C(O)C(O)(c1cccs1)c1cccs1  metabolite over parent AUC(0-24) ratio (human, plasma; oral, 50 mg once daily, 5 days, median; reference: metabolite over parent): 0.199
COc1cc2c(Oc3ccc4[nH]c(C)cc4c3F)ccnc2cc1OCC1(N)CC1  grade 3 Epistaxis (paediatric recurrent refractory sarcoma; 8 mg/kg): 0%
C[C@@H]1NC(=O)[C@H](CCCCNC(=O)CO/N=C/C(=O)NCCCC[C@@H]2NC(=O)[C@@H](Cc3ccccc3)NC(=O)[C@H](CC(=O)O)NC(=O)CNC(=O)[C@H](CCCNC(=N)N)NC2=O)NC(=O)CNC(=O)[C@@H]2CCCN2C(=O)[C@H](CCCCNC(=O)CO/N=C/C(=O)NCCCC[C@@H]2NC(=O)[C@@H](Cc3ccccc3)NC(=O)[C@H](CC(=O)O)NC(=O)CNC(=O)[C@H](CCCNC(=N)N)NC2=O)NC(=O)[C@H](CCCCNC(=O)CN2CCCNCCNCCCNCC2)NC(=O)[C@H](CCCCNC(=O)CO/N=C/C(=O)NCCCC[C@@H]2NC(=O)[C@@H](Cc3ccccc3)NC(=O)[C@H](CC(=O)O)NC(=O)CNC(=O)[C@H](CCCNC(=N)N)NC2=O)NC(=O)CNC(=O)[C@@H]2CCCN2C(=O)[C@H](CCCCNC(=O)CO/N=C/C(=O)NCCCC[C@@H]2NC(=O)[C@@H](Cc3ccccc3)NC(=O)[C@H](CC(=O)O)NC(=O)CNC(=O)[C@H](CCCNC(=N)N)NC2=O)NC1=O [copper-64 labelled]  tissue uptake (normal mice, muscle; intravenous, 0.74 MBq, 3 h post-injection): 0.38 ± 0.05 %ID/g
CCCCCCCCCCCCCCCC(=O)N[C@@H](CCC(=O)NCCCC[C@H](NC(=O)[C@H](CC(=O)O)NC(=O)[C@H](CO)NC(=O)[C@@H](NC(=O)[C@H](Cc1ccccc1)NC(=O)[C@@H](NC(=O)CNC(=O)[C@H](CCC(N)=O)NC(=O)[C@H](CO)NC(=O)[C@@H](N)Cc1c[nH]cn1)[C@@H](C)O)[C@@H](C)O)C(=O)N[C@@H](CO)C(=O)N[C@@H](CCC(=O)O)C(=O)N[C@@H](Cc1ccc(O)cc1)C(=O)N[C@@H](CC(C)C)C(=O)N[C@@H](CC(=O)O)C(=O)N[C@@H](CO)C(=O)N[C@@H](CCC(=O)O)C(=O)N[C@@H](CCCNC(=N)N)C(=O)N[C@@H](C)C(=O)N[C@@H](CCCNC(=N)N)C(=O)N[C@@H](CC(=O)O)C(=O)N[C@@H](Cc1ccccc1)C(=O)N[C@H](C(=O)N[C@@H](C)C(=O)N[C@@H](Cc1c[nH]c2ccccc12)C(=O)N[C@@H](CC(C)C)C(=O)N[C@@H](CCC(=O)O)C(=O)N[C@@H](C)C(=O)NCC(=O)NCC(=O)O)C(C)C)C(=O)O  treatment-related adverse events (item: Flatulence; humans CrCl 20 to 30 mL/min; subcutaneous, 100 µg single dose): 0%
CC(C)(O)c1cc(Nc2cc(Oc3cn(C4CC4)nc3C3CCOCC3)ccn2)ccn1  treatment-emergent adverse events (item: Vomiting; Japanese patients with advanced cancer; oral, dose not given, any grade): 0%
CC1(C)C(C=C(Cl)Cl)C1C(=O)OC(C#N)c1ccc(F)c(Oc2ccccc2)c1 (centres unmarked)  enzyme contribution to clearance (item: CYP2C9; human, age 5 years, recombinant human CYP2C9; 0.1 µM): 2.01%
CNc1nc(N)ncc1-c1cn([C@@H]2O[C@H](CO)[C@@H](O)[C@@]2(C)F)cn1  time serum level quantifiable (CD-1 mouse; 100 mg/kg single dose): > 2 h
Brc1ccc(Oc2cc(Br)c(Br)cc2Br)c(Br)c1  final permeate concentration (ultrafiltration; cow milk whey; 200 nM nominal in whole milk): 0.49 nM
COc1c(N2CC3CCCN(C(=O)OCc4ccc([N+](=O)[O-])cc4)C3C2)c(F)cc2c(=O)c(C(=O)O)cn(C3CC3)c12 (centres unmarked)  reduction potential (cyclic voltammetry; anhydrous acetonitrile; concentration not given; reference: Ag/AgCl): -1.21 V
CC(C)[C@@H]1NC(=O)CNC(=O)[C@H](CC(N)=O)NC(=O)[C@H](CCCNC(=N)N)NC(=O)[C@H](Cc2ccc(O)cc2)NC(=O)[C@H](C(C)C)NC(=O)[C@@H](NC(=O)[C@@H](NC(=O)[C@H](CC(N)=O)NC(=O)[C@H](Cc2c[nH]c3ccccc23)NC(=O)[C@H](C)NC(=O)[C@H](Cc2ccccc2)NC(=O)CN)C(C)C)CSSC[C@@H](C(=O)N[C@@H](Cc2cnc[nH]2)C(=O)N[C@@H](CCCNC(=N)N)C(=O)N[C@@H](CCCNC(=N)N)C(=O)N[C@@H](C)C(=O)N[C@@H](CC(N)=O)C(N)=O)NC(=O)[C@H](C(C)C)NC(=O)[C@H](CCCNC(=N)N)NC1=O  breathing score (ICR mouse; ip, 10 mg/kg; direction not given): 0
Cn1nc(NS(C)(=O)=O)c2c(Cl)ccc(-n3c([C@H](Cc4cc(F)cc(F)c4)NC(=O)Cn4nc(C(F)F)c5c4C(F)(F)[C@@H]4C[C@H]54)nc4nc(OCCC(F)(F)F)ccc4c3=O)c21  participants with grade 2 LDL-C increase (human; dose not given): 10%
O=C(Nc1ccccc1)C1CCN(C(=O)Oc2cccnc2)CC1  adverse event Lethargy (healthy women; oral, 100 mg, 9 days): 7.7%
C[C@@H]1OC(=O)NN=C1c1ccc(-c2ccc(F)cc2)c(C(F)(F)F)c1  patients with TEAE (phase I trial, item: non-cardiac chest pain; human patients; 5 mg load, 0.25 mg daily, worst grade 1): 0%

A few entries again:
CCCCCCCCCCCCCCCC(=O)N[C@@H](CCC(=O)NCCCC[C@H](NC(=O)[C@H](CC(=O)O)NC(=O)[C@H](CO)NC(=O)[C@@H](NC(=O)[C@H](Cc1ccccc1)NC(=O)[C@@H](NC(=O)CNC(=O)[C@H](CCC(N)=O)NC(=O)[C@H](CO)NC(=O)[C@@H](N)Cc1c[nH]cn1)[C@@H](C)O)[C@@H](C)O)C(=O)N[C@@H](CO)C(=O)N[C@@H](CCC(=O)O)C(=O)N[C@@H](Cc1ccc(O)cc1)C(=O)N[C@@H](CC(C)C)C(=O)N[C@@H](CC(=O)O)C(=O)N[C@@H](CO)C(=O)N[C@@H](CCC(=O)O)C(=O)N[C@@H](CCCNC(=N)N)C(=O)N[C@@H](C)C(=O)N[C@@H](CCCNC(=N)N)C(=O)N[C@@H](CC(=O)O)C(=O)N[C@@H](Cc1ccccc1)C(=O)N[C@H](C(=O)N[C@@H](C)C(=O)N[C@@H](Cc1c[nH]c2ccccc12)C(=O)N[C@@H](CC(C)C)C(=O)N[C@@H](CCC(=O)O)C(=O)N[C@@H](C)C(=O)NCC(=O)NCC(=O)O)C(C)C)C(=O)O  treatment-related adverse events (item: Flatulence; humans CrCl 20 to 30 mL/min; subcutaneous, 100 µg single dose): 0%
O=C(c1ccc(F)c(F)c1Nc1ccc(I)cc1F)N1CC(O)([C@@H]2CCCCN2)C1  related AE dose modification (patients aged sample A to sample B years; oral, dose not given): 29%
